Experimental data gathered from unrelated publications.
Protocols differ between the studies behind these lines. Values joined by “and” are separate records of one study, mostly repeats; a detail may differ.
CA2: Carbonic anhydrase 2 (CA2, Homo sapiens, UniProt P00918)
Penicillin-binding protein 2X: Penicillin-binding protein 2X (Streptococcus pneumoniae R6, UniProt P59676)
PFF0160c: Dihydroorotate dehydrogenase (quinone), mitochondrial (PFF0160c, Plasmodium falciparum, UniProt Q08210)
CA12: Carbonic anhydrase 12 (CA12, Homo sapiens, UniProt O43570)
UniProt O43570, sequence (whole entry, looked up): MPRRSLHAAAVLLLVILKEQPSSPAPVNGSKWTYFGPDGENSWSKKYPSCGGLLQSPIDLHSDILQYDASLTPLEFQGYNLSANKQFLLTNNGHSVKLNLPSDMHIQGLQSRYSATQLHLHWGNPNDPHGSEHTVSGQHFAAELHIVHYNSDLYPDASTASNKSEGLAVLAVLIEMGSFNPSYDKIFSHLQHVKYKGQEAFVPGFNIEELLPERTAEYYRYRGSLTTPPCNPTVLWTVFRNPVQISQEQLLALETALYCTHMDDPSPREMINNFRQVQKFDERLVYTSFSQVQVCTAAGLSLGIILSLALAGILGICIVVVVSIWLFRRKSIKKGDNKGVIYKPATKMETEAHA
TMEM97: Sigma intracellular receptor 2 (TMEM97, Homo sapiens, UniProt Q5BJF2)
UniProt Q5BJF2, sequence (whole entry, looked up): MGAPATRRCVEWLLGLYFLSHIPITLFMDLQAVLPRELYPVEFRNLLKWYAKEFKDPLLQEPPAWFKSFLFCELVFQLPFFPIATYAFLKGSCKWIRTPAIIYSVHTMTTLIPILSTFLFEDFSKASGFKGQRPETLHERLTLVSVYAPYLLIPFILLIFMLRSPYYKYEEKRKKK
APLNR: Apelin receptor (APLNR, Homo sapiens, UniProt P35414)
UniProt P35414, sequence (whole entry, looked up): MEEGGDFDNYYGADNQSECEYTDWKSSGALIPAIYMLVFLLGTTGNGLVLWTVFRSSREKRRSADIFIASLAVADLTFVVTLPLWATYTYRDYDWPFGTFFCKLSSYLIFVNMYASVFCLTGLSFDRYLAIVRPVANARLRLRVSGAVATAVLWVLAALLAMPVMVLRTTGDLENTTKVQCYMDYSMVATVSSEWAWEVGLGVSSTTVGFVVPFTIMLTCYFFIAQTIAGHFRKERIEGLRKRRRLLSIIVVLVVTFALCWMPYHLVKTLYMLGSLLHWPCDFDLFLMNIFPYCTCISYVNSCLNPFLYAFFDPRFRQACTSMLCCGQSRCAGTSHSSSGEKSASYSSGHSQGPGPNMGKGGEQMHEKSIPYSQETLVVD
sapA: sapA (Haemophilus influenzae, UniProt Q4QL73)
UniProt P31645, sequence (whole entry, looked up): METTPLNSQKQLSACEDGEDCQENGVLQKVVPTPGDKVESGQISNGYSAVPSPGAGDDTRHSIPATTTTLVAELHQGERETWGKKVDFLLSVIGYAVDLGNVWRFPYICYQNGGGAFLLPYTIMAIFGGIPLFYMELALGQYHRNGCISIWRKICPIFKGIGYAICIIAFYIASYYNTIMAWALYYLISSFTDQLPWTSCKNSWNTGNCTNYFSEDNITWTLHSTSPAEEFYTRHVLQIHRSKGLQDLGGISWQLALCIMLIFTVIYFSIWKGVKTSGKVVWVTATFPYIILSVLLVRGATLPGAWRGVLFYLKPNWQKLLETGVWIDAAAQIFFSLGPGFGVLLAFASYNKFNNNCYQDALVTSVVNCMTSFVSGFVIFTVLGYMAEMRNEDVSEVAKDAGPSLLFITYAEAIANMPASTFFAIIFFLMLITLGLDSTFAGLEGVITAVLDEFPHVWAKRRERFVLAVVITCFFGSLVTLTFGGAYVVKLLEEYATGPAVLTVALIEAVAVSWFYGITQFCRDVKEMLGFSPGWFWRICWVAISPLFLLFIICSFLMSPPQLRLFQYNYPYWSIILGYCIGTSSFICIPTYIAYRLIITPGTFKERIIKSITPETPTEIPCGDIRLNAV
UniProt Q8TDR2, sequence (whole entry, looked up): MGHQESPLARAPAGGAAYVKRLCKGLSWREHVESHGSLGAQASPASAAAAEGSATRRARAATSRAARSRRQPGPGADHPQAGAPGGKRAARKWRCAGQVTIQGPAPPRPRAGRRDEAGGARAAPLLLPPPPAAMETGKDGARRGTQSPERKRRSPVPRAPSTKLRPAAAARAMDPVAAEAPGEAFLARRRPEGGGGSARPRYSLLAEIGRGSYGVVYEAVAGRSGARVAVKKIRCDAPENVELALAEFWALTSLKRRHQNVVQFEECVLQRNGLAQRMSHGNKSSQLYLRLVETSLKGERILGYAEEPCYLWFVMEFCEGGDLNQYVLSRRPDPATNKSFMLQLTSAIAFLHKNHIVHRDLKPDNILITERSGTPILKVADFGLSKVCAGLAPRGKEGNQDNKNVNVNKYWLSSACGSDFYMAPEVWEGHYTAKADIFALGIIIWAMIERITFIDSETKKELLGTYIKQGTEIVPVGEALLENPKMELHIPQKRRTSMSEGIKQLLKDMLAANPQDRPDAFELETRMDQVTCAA
UniProt P49841, sequence (whole entry, looked up): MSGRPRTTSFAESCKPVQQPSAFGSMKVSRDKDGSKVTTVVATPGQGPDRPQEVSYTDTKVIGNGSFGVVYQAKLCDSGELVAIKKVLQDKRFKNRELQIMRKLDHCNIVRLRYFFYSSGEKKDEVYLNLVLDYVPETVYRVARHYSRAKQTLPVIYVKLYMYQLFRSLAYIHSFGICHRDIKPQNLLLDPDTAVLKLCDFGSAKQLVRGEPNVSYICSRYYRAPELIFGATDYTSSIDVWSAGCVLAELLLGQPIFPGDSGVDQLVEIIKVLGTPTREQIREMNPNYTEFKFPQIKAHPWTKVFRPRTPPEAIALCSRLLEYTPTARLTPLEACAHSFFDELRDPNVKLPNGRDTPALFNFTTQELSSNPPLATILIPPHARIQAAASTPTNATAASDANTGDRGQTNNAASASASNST
UniProt P35363, sequence (whole entry, looked up): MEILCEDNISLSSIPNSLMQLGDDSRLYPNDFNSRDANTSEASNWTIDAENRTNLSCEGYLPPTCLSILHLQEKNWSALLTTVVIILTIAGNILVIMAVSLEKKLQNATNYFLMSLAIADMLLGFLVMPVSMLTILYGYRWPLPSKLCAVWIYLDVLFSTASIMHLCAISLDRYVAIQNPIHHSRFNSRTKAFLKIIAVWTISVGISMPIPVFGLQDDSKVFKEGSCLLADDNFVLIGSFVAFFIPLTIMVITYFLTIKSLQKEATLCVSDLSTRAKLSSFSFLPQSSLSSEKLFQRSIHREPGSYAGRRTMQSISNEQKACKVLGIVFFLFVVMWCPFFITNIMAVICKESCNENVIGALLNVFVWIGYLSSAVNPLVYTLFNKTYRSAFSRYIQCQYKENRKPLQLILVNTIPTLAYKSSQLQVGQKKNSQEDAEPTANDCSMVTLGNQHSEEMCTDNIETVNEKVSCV
UniProt P25440, sequence (whole entry, looked up): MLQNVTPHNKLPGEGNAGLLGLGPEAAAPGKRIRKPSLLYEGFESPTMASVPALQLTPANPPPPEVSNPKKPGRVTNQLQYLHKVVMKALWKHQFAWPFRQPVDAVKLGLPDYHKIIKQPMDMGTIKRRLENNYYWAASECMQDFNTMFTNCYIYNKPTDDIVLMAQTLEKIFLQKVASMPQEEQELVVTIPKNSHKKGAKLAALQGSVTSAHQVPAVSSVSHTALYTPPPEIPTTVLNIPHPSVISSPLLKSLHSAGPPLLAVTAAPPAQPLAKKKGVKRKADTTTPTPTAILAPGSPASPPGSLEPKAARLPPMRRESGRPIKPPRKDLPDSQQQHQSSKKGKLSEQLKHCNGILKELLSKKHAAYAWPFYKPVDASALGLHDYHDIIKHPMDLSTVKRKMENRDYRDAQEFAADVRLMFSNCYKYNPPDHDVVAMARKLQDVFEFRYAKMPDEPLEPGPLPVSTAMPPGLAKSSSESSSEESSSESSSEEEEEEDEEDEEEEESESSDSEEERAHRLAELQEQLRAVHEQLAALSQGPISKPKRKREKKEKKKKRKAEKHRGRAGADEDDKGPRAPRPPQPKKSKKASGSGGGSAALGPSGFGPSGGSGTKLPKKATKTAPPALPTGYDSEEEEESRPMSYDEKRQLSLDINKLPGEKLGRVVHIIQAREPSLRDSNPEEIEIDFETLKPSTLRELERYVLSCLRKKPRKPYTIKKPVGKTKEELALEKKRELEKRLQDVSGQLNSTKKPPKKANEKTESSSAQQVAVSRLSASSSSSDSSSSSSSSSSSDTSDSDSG
UniProt Q15569, sequence (whole entry, looked up): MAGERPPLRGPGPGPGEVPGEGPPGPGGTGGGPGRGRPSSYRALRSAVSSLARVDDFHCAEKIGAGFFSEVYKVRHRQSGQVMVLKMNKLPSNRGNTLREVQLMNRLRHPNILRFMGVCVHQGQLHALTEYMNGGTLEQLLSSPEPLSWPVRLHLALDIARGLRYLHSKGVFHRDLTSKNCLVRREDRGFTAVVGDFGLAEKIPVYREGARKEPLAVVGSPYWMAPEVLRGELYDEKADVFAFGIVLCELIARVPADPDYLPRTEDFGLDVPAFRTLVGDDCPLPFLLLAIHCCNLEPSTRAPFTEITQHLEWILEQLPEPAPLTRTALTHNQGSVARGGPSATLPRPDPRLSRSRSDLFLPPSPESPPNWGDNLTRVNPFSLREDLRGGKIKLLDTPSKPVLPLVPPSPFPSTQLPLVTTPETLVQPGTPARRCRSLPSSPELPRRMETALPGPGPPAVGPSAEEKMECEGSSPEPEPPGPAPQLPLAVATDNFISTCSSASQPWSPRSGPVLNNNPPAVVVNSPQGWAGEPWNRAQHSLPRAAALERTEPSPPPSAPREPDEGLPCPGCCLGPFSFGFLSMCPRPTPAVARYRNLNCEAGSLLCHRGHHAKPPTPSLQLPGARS
UniProt Q9HB89, sequence (whole entry, looked up): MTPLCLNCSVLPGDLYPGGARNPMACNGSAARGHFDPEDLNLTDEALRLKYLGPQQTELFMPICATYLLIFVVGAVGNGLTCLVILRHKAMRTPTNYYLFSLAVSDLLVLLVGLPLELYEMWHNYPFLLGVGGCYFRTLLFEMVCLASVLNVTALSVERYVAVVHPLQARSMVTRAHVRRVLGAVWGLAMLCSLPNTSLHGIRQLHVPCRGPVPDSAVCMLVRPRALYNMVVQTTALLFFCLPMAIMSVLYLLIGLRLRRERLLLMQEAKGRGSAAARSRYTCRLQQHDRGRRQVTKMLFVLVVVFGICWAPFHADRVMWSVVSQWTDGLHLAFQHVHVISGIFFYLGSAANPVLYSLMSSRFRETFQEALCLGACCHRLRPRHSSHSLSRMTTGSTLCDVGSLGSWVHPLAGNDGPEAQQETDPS

CC(Oc1ccc(C(=O)c2ccc(F)cc2)cc1)C(=O)N1CCc2ccccc21 (stereo not drawn) — IC50 (PFF0160c (Plasmodium falciparum, UniProt Q08210, E182D); enzyme activity, inhibitor, absorbance): 483 nM
O=C(Nc1ccc(C(F)(F)F)cc1)Nc1ccc2c(c1)C=CCP(=O)(O)O2 — Ki (CA2; enzyme activity, inhibitor, stopped-flow): > 10000 nM
c1ccc(OCCn2c(CNCC34CC5CC(CC(C5)C3)C4)nc3ccccc32)cc1 — Kd (Penicillin-binding protein 2X; binding, MST): 55000 nM
N#Cc1c(F)cccc1N1CCN(c2ccc(O)cc2)CC1 — IC50 (PFF0160c; enzyme activity, inhibitor, absorbance): 7230 nM
COc1ccc(C(=O)Nc2ccc3c(c2)C=CCP(=O)(O)O3)cc1 — Ki (CA12; enzyme activity, inhibitor, stopped-flow): 8.1 nM
Nc1ncc(-c2nc(N3CCOCC3)nc(N3CCOCC3)n2)c(C(F)F)n1 — remaining binding (TESK1 (Homo sapiens, UniProt Q15569); binding, competition with immobilised ligand; 10 µM): 72%
COC(=O)c1cc(-c2cccc(NC(=O)Nc3ccc(C)cc3)c2)on1 — MIC (Pseudomonas aeruginosa; microbial growth, broth dilution; ATCC27853): > 64 µg/mL
O=C(Nc1ccc(Br)cc1)Nc1ccc2c(c1)C=CCP(=O)(O)O2 — Ki (CA2; enzyme activity, inhibitor, stopped-flow): > 10000 nM
CN(C)CCCN1c2ccccc2Sc2ccc(Cl)cc21 — Ki (TMEM97; ligand displacement, radioligand): 1630 nM
COc1ccccc1N1CCN(c2cccc(F)c2C#N)CC1 — IC50 (PFF0160c; enzyme activity, inhibitor, absorbance): 1120 nM
CSCC[C@H](NC(=O)[C@H](C)NC(=O)[C@H](CCCNC(=N)N)NC(=O)[C@H](Cc1ccc(O)cc1)NC(=O)[C@H](CC(N)=O)NC(=O)[C@H](Cc1ccccc1)NC(=O)[C@H](CCCNC(=N)N)NC(=O)[C@H](CCCCN)NC(=O)[C@H](CCC(N)=O)NC(=O)[C@H](CC(C)C)NC(=O)[C@H](CO)NC(=O)[C@@H](NC(=O)[C@H](C)N)[C@@H](C)O)C(=O)N[C@@H](CC(C)C)C(=O)N[C@@H](CC(C)C)C(=O)O — EC50 (APLNR; calcium signal, agonist, fluorescence): 756 nM
O=C(Nc1ccc2c(c1)C=CCP(=O)(O)O2)c1ccc(I)cc1 — Ki (CA2; enzyme activity, inhibitor, stopped-flow): > 10000 nM
CNCC(=O)c1ccccc1 — EC50 (SLC6A4 (Homo sapiens, UniProt P31645); calcium signal, agonist, fluorescence): > 60000 nM and > 50000 nM
COc1ccc(-n2ccnc2SCC(=O)Nc2cccc(C(F)(F)F)c2)c(OC)c1 — IC50 (PFF0160c; enzyme activity, inhibitor, absorbance): 379 nM
CC(C)=CCC[C@](C)(O)[C@H]1CC[C@]2(C)[C@@H]1[C@H](O)C[C@@H]1[C@@]3(C)CC[C@H](O)C(C)(C)[C@@H]3[C@@H](O[C@@H]3O[C@H](CO)[C@@H](O)[C@H](O)[C@H]3O)C[C@]12C — Kd (RELA (Homo sapiens, UniProt Q04206); binding, BLI): 1020 nM
Cc1c(Cc2ccc(C(F)(F)F)cc2)n[nH]c1C(=O)NC1CC1 — IC50 (PFF0160c; enzyme activity, inhibitor, absorbance): 89000 nM
COc1ncccc1-c1cnn2ccc(N3CCN(C(=O)OC(C)C)CC3)nc12 — remaining binding (STK35 (Homo sapiens, UniProt Q8TDR2); binding, competition with immobilised ligand; 1 µM): 68%
COC(=O)c1cc(-c2cccc(NC(=O)Nc3ccc(Cl)cc3)c2)on1 — MIC (Mycobacteroides chelonae; microbial growth, broth dilution; ATCC35752; 48 h): > 64 µg/mL
O=C(Nc1ccc2c(c1)C=CCP(=O)(O)O2)Nc1ccccc1Br — Ki (CA2; enzyme activity, inhibitor, stopped-flow): > 10000 nM
N=C(N)NCCC[C@H](NC(=O)[C@@H](N)CO)C(=O)N[C@@H](Cc1ccc(O)cc1)C(=O)N[C@@H](CCCCN)C(=O)N[C@@H](CCC(N)=O)C(=O)O — Kd (sapA; binding): 34 nM
CN1CCN(C2=Nc3cc(Cl)ccc3Nc3ccccc32)CC1 — Ki (TMEM97; ligand displacement, radioligand): 8800 nM
[2H]c1c([2H])c([C@]2([2H])CCCN2C(=O)C(C)(C)Oc2ccc3cn[nH]c3c2)c([2H])c([2H])c1C([2H])([2H])[2H] — remaining binding (PIM2 (Homo sapiens, UniProt Q9P1W9); binding, competition with immobilised ligand; 1 µM): 90%
CC[C@H](C)[C@H](NC(=O)CNC(=O)[C@H](C)NC(=O)[C@@H]1CCCN1C(=O)[C@@H](NC(=O)[C@H](CCCNC(=N)N)NC(=O)[C@@H](N)CO)[C@@H](C)CC)C(=O)N[C@@H](C)C(=O)NCC(=O)N[C@@H](CCC(=O)O)C(=O)N[C@@H](CCCNC(=N)N)C(=O)N[C@@H](CCCNC(=N)N)C(=O)N[C@@H](Cc1ccc(O)cc1)C(=O)N[C@@H](CO)C(=O)NCC(=O)NCC(=O)NCC(=O)NCC(=O)N[C@@H](CO)C(=O)N1CCC[C@H]1C(=O)N[C@@H](C)C(=O)N1CCC[C@H]1C(=O)N[C@@H](C)C(=O)N[C@@H](CCCCN)C(=O)O — Kd (sapA; binding): 3.8 nM
O=C(Nc1cccc(F)c1)Nc1ccc2c(c1)C=CCP(=O)(O)O2 — Ki (CA2; enzyme activity, inhibitor, stopped-flow): > 10000 nM
Cc1cn([C@H]2C[C@H](OP(=O)(O)OC[C@H]3O[C@@H](n4cc(C)c(=O)[nH]c4=O)C[C@@H]3O)[C@@H](COP(=O)(O)OP(=O)(O)OP(=O)(O)O)O2)c(=O)[nH]c1=O — Kd (dgt (Salmonella enterica, UniProt A0A5H6DAK1, E129A/H126A); binding, ITC): 44 nM
Cc1nn(C)cc1-c1nc2c(N3CCN(Cc4ccc(Cl)cc4)CC3)c(Cl)cnc2[nH]1 — remaining binding (DDR1 (Homo sapiens, UniProt Q08345); binding, competition with immobilised ligand; 1 µM): 55%
FC(F)(F)c1ccc(OCCn2c(CNCC34CC5CC(CC(C5)C3)C4)nc3ccccc32)cc1 — Kd (Penicillin-binding protein 2X; binding, MST): 90000 nM
O=C(Nc1cccc(CN2CCN(C(=O)c3ccccc3)CC2)c1)c1cccs1 — IC50 (PFF0160c; enzyme activity, inhibitor, absorbance): 1430 nM
C[C@@H](O)[C@H](NC(=O)CNC(=O)[C@H](Cc1ccc(O)cc1)NC(=O)[C@H](CCCNC(=N)N)NC(=O)[C@@H](N)CCCNC(=N)N)C(=O)O — Kd (sapA; binding): 5.4 nM
Fc1ccc([C@@H]2CCNC[C@H]2COc2ccc3c(c2)OCO3)cc1 — Ki (TMEM97; ligand displacement, radioligand): 3100 nM
COC(=O)C[C@@H]1N=C(c2c3ccccc3cc3ccccc23)c2cc(OC)ccc2-n2c(C)nnc21 — Kd (Bromodomain-containing protein 2, BD2 (BRD2, Homo sapiens, UniProt P25440); binding, SPR): 7480 nM
N.N.[Cl][Pt][Cl] — inhibition (CCRF-CEM; cell growth or viability, ATP luminescence; 10 µM, 72 h): 100%
CC(C)C[C@H](NC(=O)[C@H](Cc1ccccc1)NC(=O)[C@H](Cc1ccc(O)cc1)NC(=O)CNC(=O)[C@H](CCCCN)NC(=O)[C@H](CO)NC(=O)[C@H](CCC(N)=O)NC(=O)CNC(=O)[C@@H](NC(=O)[C@H](CO)NC(=O)[C@@H]1CCCN1C(=O)[C@H](CO)NC(=O)[C@H](CCC(N)=O)NC(=O)[C@H](Cc1ccc(O)cc1)NC(=O)[C@H](CCC(=O)O)NC(=O)[C@H](C)NC(=O)[C@H](CCCCN)NC(=O)[C@@H](N)Cc1ccccc1)C(C)C)C(=O)N[C@@H](Cc1ccccc1)C(=O)N[C@@H](CCCNC(=N)N)C(=O)N1CCC[C@H]1C(=O)N[C@@H](CCCNC(=N)N)C(=O)N[C@@H](CC(N)=O)C(N)=O — EC50 (NMUR1 (Homo sapiens, UniProt Q9HB89); β-arrestin recruitment, agonist): 0.692 nM
O=C(Nc1ccc2c(c1)C=CCP(=O)(O)O2)c1ccccc1 — Ki (CA2; enzyme activity, inhibitor, stopped-flow): > 10000 nM
CC(=O)c1c(Nc2c(C)cc(C)cc2C)oc(C)cc1=O — IC50 (PFF0160c; enzyme activity, inhibitor, absorbance): > 10000 nM
CC[C@H](C)[C@H](NC(=O)[C@H](CO)NC(=O)[C@H](Cc1c[nH]cn1)NC(=O)[C@H](CC(C)C)NC(=O)[C@H](CC(C)C)NC(=O)[C@H](CCCNC(=N)N)NC(=O)[C@H](CS)NC(=O)[C@H](CC(C)C)NC(=O)[C@H](CCC(=O)O)NC(=O)[C@H](CCCCN)NC(=O)[C@@H](N)CO)C(=O)NCC(=O)N1CCC[C@H]1C(=O)N[C@@H](Cc1ccccc1)C(=O)N1CCC[C@H]1C(=O)O — EC50 (APLNR; calcium signal, agonist, fluorescence): 2230 nM
CC(=O)N(C)[C@H]1[C@H]([C@H](O)[C@H](O)CO)OC(C(=O)O)=C[C@@H]1O — IC50 (Sialidase-3 (Homo sapiens, UniProt Q9UQ49); enzyme activity, inhibitor): > 500000 nM
COc1cccc(NC(=O)Nc2ccc3c(c2)C=CCP(=O)(O)O3)c1 — Ki (CA12; enzyme activity, inhibitor, stopped-flow): > 10000 nM
CC1CN(Cc2ccc(-c3ccc(C(=O)NCC4CCCO4)cn3)cc2)CC(C)O1 (stereo not drawn) — IC50 (PFF0160c; enzyme activity, inhibitor, absorbance): 4560 nM
C#Cc1n[nH]c2c(-c3cn(C(C)c4ccccn4)c(=O)[nH]c3=O)cc(F)cc12 (stereo not drawn) — inhibition (GSK3B (Homo sapiens, UniProt P49841); enzyme activity, inhibitor; 1 µM): 3.7%
Cc1cccc(NCc2nc3ccccc3n2CCOc2ccccc2)c1 — Kd (Penicillin-binding protein 2X; binding, MST): 380000 nM
N=C(N)NCCC[C@H](N)C(=O)N[C@@H](CO)C(=O)N[C@@H](Cc1ccc(O)cc1)C(=O)N[C@@H](CCCCN)C(=O)N[C@@H](CCC(N)=O)C(=O)O — Kd (sapA; binding): 258 nM
COc1cc(C(F)(F)F)c(OC)cc1C1CCCNC1 (stereo not drawn) — EC50 (Htr2a (Mus musculus, UniProt P35363); G protein activation, agonist, BRET): 19.1 nM
Cc1nc2c(=O)sc3ccccc3c2n1Cc1ccccc1 — IC50 (PFF0160c; enzyme activity, inhibitor, absorbance): 834 nM
CC(CN1c2ccccc2Sc2ccccc21)N(C)C (stereo not drawn) — Ki (TMEM97; ligand displacement, radioligand): 2140 nM

Repeated from above:
O=C(Nc1ccc(Br)cc1)Nc1ccc2c(c1)C=CCP(=O)(O)O2 — Ki (CA2; enzyme activity, inhibitor, stopped-flow): > 10000 nM
O=C(Nc1ccc2c(c1)C=CCP(=O)(O)O2)c1ccccc1 — Ki (CA2; enzyme activity, inhibitor, stopped-flow): > 10000 nM
CC(CN1c2ccccc2Sc2ccccc21)N(C)C (stereo not drawn) — Ki (TMEM97; ligand displacement, radioligand): 2140 nM
CN1CCN(C2=Nc3cc(Cl)ccc3Nc3ccccc32)CC1 — Ki (TMEM97; ligand displacement, radioligand): 8800 nM
COC(=O)c1cc(-c2cccc(NC(=O)Nc3ccc(Cl)cc3)c2)on1 — MIC (Mycobacteroides chelonae; microbial growth, broth dilution; ATCC35752; 48 h): > 64 µg/mL
O=C(Nc1ccc2c(c1)C=CCP(=O)(O)O2)c1ccc(I)cc1 — Ki (CA2; enzyme activity, inhibitor, stopped-flow): > 10000 nM
CN(C)CCCN1c2ccccc2Sc2ccc(Cl)cc21 — Ki (TMEM97; ligand displacement, radioligand): 1630 nM
